Measurements collected from several papers.
Each line is one published result; not all experiments were run side by side. “And” joins repeats or separate records; there may be more than shown. ± gives the spread as reported.
Ptger2: Prostaglandin E2 receptor EP2 subtype (Ptger2, Rattus norvegicus, UniProt Q62928)
Sequence of UniProt Q62928 (whole entry, looked up): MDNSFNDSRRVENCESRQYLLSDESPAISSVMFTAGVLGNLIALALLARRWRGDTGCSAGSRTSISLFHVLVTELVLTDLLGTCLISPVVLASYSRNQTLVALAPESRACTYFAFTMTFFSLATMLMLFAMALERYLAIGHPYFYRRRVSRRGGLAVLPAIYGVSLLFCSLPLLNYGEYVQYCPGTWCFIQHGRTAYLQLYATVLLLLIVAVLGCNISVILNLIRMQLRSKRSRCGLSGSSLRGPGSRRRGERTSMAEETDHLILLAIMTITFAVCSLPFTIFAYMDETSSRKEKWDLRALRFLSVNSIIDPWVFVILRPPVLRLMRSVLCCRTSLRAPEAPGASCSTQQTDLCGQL
Mc1r: Melanocyte-stimulating hormone receptor (Mc1r, Mus musculus, UniProt Q01727)
Sequence of UniProt Q01727 (whole entry, looked up): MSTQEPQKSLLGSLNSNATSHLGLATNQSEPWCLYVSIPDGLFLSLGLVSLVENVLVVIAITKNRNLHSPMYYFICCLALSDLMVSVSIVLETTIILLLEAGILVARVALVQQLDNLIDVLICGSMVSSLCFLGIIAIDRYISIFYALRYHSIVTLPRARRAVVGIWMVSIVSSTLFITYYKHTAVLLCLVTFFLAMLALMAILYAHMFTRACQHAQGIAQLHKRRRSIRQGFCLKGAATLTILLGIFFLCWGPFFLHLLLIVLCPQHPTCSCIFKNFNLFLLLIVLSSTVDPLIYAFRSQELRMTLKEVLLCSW
DRD2: D(2) dopamine receptor (DRD2, Homo sapiens, UniProt P14416)
Sequence of UniProt P14416 (whole entry, looked up): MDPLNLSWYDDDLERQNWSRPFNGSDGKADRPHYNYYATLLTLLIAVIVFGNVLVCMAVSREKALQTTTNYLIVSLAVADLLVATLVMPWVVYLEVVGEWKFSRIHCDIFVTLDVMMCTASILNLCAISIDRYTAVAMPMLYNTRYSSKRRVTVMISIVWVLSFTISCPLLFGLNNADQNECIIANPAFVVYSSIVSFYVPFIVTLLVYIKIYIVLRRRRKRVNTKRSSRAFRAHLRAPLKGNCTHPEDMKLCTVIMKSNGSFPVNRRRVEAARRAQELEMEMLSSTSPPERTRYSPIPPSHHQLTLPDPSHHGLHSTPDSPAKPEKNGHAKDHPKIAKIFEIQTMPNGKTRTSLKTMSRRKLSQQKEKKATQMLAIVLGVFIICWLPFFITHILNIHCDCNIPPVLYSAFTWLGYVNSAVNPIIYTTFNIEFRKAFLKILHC
Sequence of UniProt Q9Y5N1 (whole entry, looked up): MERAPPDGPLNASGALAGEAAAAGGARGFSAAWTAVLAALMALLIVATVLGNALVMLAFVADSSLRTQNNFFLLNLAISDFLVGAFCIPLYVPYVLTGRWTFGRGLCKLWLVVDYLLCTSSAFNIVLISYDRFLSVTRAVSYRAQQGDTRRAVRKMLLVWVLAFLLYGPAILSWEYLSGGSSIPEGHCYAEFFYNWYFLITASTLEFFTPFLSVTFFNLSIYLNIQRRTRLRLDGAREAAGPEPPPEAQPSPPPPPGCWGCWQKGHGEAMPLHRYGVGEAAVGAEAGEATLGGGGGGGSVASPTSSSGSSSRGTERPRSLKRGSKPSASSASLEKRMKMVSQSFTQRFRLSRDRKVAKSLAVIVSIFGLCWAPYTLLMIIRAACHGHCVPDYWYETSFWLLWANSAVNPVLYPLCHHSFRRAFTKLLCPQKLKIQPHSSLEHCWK
Sequence of UniProt O35433 (whole entry, unmodified, looked up): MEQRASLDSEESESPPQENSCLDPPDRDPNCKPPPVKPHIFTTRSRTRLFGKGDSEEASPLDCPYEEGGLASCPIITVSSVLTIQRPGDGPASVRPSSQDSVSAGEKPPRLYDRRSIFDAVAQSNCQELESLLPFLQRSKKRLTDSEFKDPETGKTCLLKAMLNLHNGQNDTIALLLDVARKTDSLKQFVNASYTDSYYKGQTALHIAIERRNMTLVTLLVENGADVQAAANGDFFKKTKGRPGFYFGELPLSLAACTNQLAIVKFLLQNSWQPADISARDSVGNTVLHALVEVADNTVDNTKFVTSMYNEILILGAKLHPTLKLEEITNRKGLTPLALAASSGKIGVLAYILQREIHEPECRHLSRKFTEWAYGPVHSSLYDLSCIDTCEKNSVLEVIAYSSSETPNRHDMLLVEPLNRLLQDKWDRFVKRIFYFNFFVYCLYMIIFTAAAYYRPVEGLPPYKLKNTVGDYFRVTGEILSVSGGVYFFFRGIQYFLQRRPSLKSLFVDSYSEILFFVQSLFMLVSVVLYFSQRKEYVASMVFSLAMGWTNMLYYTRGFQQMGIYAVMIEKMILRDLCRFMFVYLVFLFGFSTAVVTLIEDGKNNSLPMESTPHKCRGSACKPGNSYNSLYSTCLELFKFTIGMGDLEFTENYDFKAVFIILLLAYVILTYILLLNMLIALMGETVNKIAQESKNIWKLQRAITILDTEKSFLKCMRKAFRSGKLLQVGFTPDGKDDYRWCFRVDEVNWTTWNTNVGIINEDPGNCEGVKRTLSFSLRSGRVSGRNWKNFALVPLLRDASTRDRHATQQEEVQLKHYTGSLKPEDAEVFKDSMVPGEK
Sequence of UniProt P23921 (whole entry, looked up): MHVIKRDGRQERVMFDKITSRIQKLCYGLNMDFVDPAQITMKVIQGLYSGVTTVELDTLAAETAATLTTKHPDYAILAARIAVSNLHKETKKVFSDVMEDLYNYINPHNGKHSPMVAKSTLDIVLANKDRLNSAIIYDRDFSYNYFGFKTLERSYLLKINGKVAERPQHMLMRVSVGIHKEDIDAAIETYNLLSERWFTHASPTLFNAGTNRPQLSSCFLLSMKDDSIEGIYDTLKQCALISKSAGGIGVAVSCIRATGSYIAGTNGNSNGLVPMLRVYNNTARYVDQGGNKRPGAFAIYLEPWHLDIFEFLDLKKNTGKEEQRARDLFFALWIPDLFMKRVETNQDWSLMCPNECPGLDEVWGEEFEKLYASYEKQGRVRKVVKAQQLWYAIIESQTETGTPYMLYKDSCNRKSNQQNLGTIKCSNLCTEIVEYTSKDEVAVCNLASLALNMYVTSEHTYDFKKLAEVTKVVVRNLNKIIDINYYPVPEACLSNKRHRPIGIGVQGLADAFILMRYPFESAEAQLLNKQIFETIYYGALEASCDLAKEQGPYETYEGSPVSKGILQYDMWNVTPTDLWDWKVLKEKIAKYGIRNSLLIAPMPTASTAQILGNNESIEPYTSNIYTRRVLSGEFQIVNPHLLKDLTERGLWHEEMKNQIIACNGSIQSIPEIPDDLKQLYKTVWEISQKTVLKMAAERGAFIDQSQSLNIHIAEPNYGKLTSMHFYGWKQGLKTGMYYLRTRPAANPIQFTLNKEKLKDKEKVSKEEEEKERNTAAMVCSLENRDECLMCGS
Sequence of UniProt Q07812 (whole entry, looked up): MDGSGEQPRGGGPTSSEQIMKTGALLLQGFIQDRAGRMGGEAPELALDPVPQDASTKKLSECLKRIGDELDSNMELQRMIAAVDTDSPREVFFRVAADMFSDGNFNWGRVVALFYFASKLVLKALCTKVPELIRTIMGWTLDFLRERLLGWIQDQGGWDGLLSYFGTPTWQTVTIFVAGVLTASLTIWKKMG
Sequence of UniProt Q6B856 (whole entry, looked up): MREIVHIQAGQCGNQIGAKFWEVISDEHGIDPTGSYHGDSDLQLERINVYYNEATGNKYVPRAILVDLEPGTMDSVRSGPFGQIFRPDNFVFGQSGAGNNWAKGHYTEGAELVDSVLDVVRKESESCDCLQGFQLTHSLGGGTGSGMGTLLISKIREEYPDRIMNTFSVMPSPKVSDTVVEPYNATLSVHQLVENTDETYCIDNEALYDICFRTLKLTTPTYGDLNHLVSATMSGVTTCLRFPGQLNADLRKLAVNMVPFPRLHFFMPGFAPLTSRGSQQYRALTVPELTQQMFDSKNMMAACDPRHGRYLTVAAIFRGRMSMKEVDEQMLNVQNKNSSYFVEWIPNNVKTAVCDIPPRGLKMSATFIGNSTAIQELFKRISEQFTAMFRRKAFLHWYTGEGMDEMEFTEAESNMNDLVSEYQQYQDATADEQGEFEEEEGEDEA
Sequence of UniProt P18825 (whole entry, looked up): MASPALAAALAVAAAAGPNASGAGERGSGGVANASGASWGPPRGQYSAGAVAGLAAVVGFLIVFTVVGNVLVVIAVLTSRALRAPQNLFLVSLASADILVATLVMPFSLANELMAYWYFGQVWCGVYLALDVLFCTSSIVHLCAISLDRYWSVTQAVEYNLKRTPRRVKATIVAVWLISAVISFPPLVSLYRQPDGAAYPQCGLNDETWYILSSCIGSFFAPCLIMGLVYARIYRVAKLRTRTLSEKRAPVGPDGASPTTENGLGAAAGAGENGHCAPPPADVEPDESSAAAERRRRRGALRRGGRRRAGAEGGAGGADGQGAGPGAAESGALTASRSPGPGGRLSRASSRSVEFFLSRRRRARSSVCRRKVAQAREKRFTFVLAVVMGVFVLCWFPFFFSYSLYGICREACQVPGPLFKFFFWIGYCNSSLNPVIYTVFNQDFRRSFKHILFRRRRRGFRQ
Sequence of UniProt P81947 (whole entry, looked up): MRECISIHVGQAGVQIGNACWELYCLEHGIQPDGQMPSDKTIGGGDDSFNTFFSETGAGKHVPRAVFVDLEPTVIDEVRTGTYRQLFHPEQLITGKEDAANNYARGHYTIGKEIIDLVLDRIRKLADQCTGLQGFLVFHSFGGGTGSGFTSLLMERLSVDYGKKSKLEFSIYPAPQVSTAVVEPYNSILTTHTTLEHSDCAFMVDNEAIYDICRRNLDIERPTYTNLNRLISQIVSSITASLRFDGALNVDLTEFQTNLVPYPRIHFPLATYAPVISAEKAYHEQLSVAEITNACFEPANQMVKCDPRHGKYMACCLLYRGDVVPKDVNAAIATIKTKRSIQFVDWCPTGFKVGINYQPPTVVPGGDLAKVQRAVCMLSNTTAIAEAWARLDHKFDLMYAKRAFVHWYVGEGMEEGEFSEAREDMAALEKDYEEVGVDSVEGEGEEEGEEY
Sequence of UniProt P07148 (whole entry, looked up): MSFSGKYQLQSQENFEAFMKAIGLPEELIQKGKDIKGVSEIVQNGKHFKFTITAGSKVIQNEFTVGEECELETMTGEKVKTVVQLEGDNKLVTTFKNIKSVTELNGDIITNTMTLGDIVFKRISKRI

Cc1ccc(S(=O)(=O)N2CCC[C@H]2c2ccc(F)cc2)cc1 (racemic) — EC50 (Metabotropic glutamate receptor 1 (Grm1, Rattus norvegicus, UniProt P23385); calcium response, positive allosteric modulator; BHK expressing mGluR1a; together with: glutamate EC20): 186 ± 45.6 nM
CCCCC[C@H](O)/C=C/[C@H]1CCC(=O)[C@@H]1CCCCCCC(=O)O — EC50 (Ptger2; cAMP, agonist): 617 nM
CCCC[C@H](NC(=O)[C@H](CO)NC(=O)[C@H](Cc1ccc(O)cc1)NC(=O)[C@H](CO)NC(C)=O)C(=O)N[C@@H](CCC(=O)O)C(=O)N[C@@H](Cc1c[nH]cn1)C(=O)N[C@@H](C)C(=O)N[C@@H](CCCNC(=N)N)C(=O)N[C@@H](Cc1c[nH]c2ccccc12)C(=O)NCC(=O)N[C@@H](CCCCN)C(=O)N1CCC[C@H]1C(=O)N[C@H](C(N)=O)C(C)C — EC50 (Mc1r): 54 ± 21 nM
NC[C@H](O)c1ccc(O)c(O)c1 — EC50 (Alpha-2C adrenergic receptor (ADRA2C, Homo sapiens, UniProt P18825); G protein activation, agonist, BRET, measured: Gαi2; HEK293T, transfected; Emax below 50%): 0.4 ± 0.2 nM
Cc1nc2ccc(OCCCCN3CCN(c4cccc(Cl)c4Cl)CC3)cc2s1 — EC50 (DRD2; cAMP, agonist, luciferase): 29 nM
CCCCC[C@H](O)/C=C/[C@H]1CCC(=O)[C@@H]1C/C=C\CCCC(=O)O — EC50 (Ptger2; cAMP, agonist): 679 nM
Cc1nc(N)sc1CCCNC(=N)NCCCCCCCCCCCCN — EC50 (Histamine H3 receptor (HRH3, Homo sapiens, UniProt Q9Y5N1); GTPγS binding, agonist; cell membranes): 1320 nM
CSCC[C@H](NC(=O)[C@H](CO)NC(=O)[C@H](Cc1ccc(O)cc1)NC(=O)[C@H](C)NC(C)=O)C(=O)N[C@@H](CCC(=O)O)C(=O)N[C@@H](Cc1c[nH]cn1)C(=O)N[C@@H](Cc1ccccc1)C(=O)N[C@@H](CCCNC(=N)N)C(=O)N[C@@H](Cc1c[nH]c2ccccc12)C(=O)NCC(=O)N[C@@H](CCCCN)C(=O)N1CCC[C@H]1C(=O)N[C@H](C(N)=O)C(C)C — EC50 (Mc1r): 165 ± 30 nM
Nc1nc(Cl)nc2c1ncn2[C@H]1C[C@H](O)[C@@H](COP(=O)(O)OP(=O)(O)OP(=O)(O)O)O1 — EC50 (Ribonucleoside-diphosphate reductase large subunit (Homo sapiens, UniProt P23921)): 500 ± 100 nM
CSCC[C@H](NC(=O)[C@H](CO)NC(=O)[C@H](Cc1ccc(O)cc1)NC(=O)[C@H](CO)NC(C)=O)C(=O)N[C@@H](CCC(=O)O)C(=O)N[C@@H](Cc1c[nH]cn1)C(=O)N[C@@H](Cc1ccccc1)C(=O)N[C@@H](CCCNC(=N)N)C(=O)N[C@@H](Cc1c[nH]c2ccccc12)C(=O)N[C@@H](C)C(=O)N[C@@H](CCCCN)C(=O)N1CCC[C@H]1C(=O)N[C@H](C(N)=O)C(C)C — EC50 (Mc1r): 25 ± 4.8 nM
BP(=O)(OC[C@H]1O[C@@H](n2ccc(=O)[nH]c2=O)[C@H](O)[C@@H]1O)OP(=O)(O)OP(=O)(O)OC[C@H]1O[C@@H](n2ccc(=O)[nH]c2=O)[C@H](O)[C@@H]1O (stereo partly drawn) — EC50 (P2Y purinoceptor 6 (Rattus norvegicus, UniProt Q63371); calcium signal, agonist, fluorescence): 300 nM
CCc1nc2cc(OCCCCN3CCN(c4cccc5c4OCCN5)CC3)ccc2s1 — EC50 (DRD2; cAMP, agonist, luciferase): 1 nM
O=C(CCCN1CCCC1)Nc1cccc(NC(=O)c2cccc(NC(=O)Nc3cccc(C(=O)Nc4cccc(NC(=O)CCCN5CCCC5)c4)c3)c2)c1 — EC50 (telomerase; inhibitor, TRAP-LIG; inactive up to solubility limit): > 50000 nM
CCC#CC[C@H](C)[C@H](O)/C=C/[C@H]1CCC(=O)N1CCCCCCC(=O)O — EC50 (Ptger2; cAMP, agonist): > 10000 nM
Oc1c(CN2CCN(c3ccccn3)CC2)cc(Cl)c2cccnc12 — EC50 (DRD2; cAMP, agonist, luciferase): 102 nM and 46 nM
O=c1c(O)c(-c2ccc(O)c(O)c2)oc2cc(O)cc(O)c12 — EC50 (Kcnh1 (Mus musculus, UniProt Q60603); V1/2 shift, inside-out patch clamp; Xenopus oocytes): 2400 ± 1000 nM
CCC1=C(O)c2c(oc(-c3csc4cc(O)ccc34)cc2=O)C(CC)(CC)C1=O — EC50 (Tubulin alpha-1B chain/TUBB2B (Bos taurus, UniProt P81947+Q6B856)): 5500 nM
CCCCCCCC(=O)OC[C@H](COP(=O)(O)O[C@@H]1[C@H](O)[C@H](O)[C@@H](OP(=O)(O)O)[C@H](OP(=O)(O)O)[C@H]1O)OC(=O)CCCCCCC — EC50 (Transient receptor potential cation channel subfamily V member 1 (Trpv1, Rattus norvegicus, UniProt O35433, R721A); agonist, inside-out patch clamp; plasma membrane inner leaflet): ~0.04 mol %
C[C@H](C(=O)O)c1ccc(-c2ccccc2)c(F)c1 — EC50 (Fatty acid-binding protein, liver (FABP1, Homo sapiens, UniProt P07148); DAUDA displacement, fluorescence; together with: FABP1 0.3 µM, DAUDA 0.5 µM): 3300 ± 1400 nM
CCCC[C@H](NC(=O)[C@H](CO)NC(=O)[C@H](Cc1ccc(O)cc1)NC(=O)[C@H](CO)NC(C)=O)C(=O)N[C@@H](CCC(=O)O)C(=O)N[C@@H](Cc1c[nH]cn1)C(=O)N[C@H](Cc1ccccc1)C(=O)N[C@@H](CCCNC(=N)N)C(=O)N[C@@H](Cc1c[nH]c2ccccc12)C(=O)NCC(=O)N[C@@H](CCCCN)C(=O)N1CCC[C@H]1C(=O)N[C@@H](C)C(N)=O — EC50 (Mc1r): 0.058 ± 0.021 nM
O=c1[nH]c2cc(OCCCCN3CCN(c4cccc(Cl)c4Cl)CC3)ccc2s1 — EC50 (DRD2; cAMP, agonist, luciferase): 5.2 nM
O=C(NCCCOCCOCCOCCCNC(=S)Nc1ccc2c(c1)C(=O)OC21c2ccc(O)cc2Oc2cc(O)ccc21)c1ccc(-c2csc(N3N=C(c4ccccc4)C(=NNc4nccs4)C3=O)n2)cc1 — EC50 (Apoptosis regulator BAX (BAX, Homo sapiens, UniProt Q07812); binding, direct fluorescence polarization; target protein titrated): 144 nM
CC(=O)N[C@@H](CO)C(=O)N[C@@H](Cc1ccc(O)cc1)C(=O)N[C@@H](CO)C(=O)N[C@@H](C)C(=O)N[C@@H](CCC(=O)O)C(=O)N[C@@H](Cc1c[nH]cn1)C(=O)N[C@@H](Cc1ccccc1)C(=O)N[C@@H](CCCNC(=N)N)C(=O)N[C@@H](Cc1c[nH]c2ccccc12)C(=O)NCC(=O)N[C@@H](CCCCN)C(=O)N1CCC[C@H]1C(=O)N[C@H](C(N)=O)C(C)C — EC50 (Mc1r): 12400 ± 10800 nM
Cc1nc2cc(OCCCCN3CCN(c4cccc5c4OCCN5)CC3)ccc2s1 — EC50 (DRD2; cAMP, agonist, luciferase): 5.2 nM

Repeated from above:
CCCC[C@H](NC(=O)[C@H](CO)NC(=O)[C@H](Cc1ccc(O)cc1)NC(=O)[C@H](CO)NC(C)=O)C(=O)N[C@@H](CCC(=O)O)C(=O)N[C@@H](Cc1c[nH]cn1)C(=O)N[C@@H](C)C(=O)N[C@@H](CCCNC(=N)N)C(=O)N[C@@H](Cc1c[nH]c2ccccc12)C(=O)NCC(=O)N[C@@H](CCCCN)C(=O)N1CCC[C@H]1C(=O)N[C@H](C(N)=O)C(C)C — EC50 (Mc1r): 54 ± 21 nM
NC[C@H](O)c1ccc(O)c(O)c1 — EC50 (Alpha-2C adrenergic receptor (ADRA2C, Homo sapiens, UniProt P18825); G protein activation, agonist, BRET, measured: Gαi2; HEK293T, transfected; Emax below 50%): 0.4 ± 0.2 nM
